Values quoted from earlier work as cited in several papers.
Protocols differ between the studies behind these lines.

Compound | tested on | test | system | conditions | endpoint | result
CN(C)[C@H]1CCN(c2cc(-c3ccccc3)nc3ccnn23)C1 | MRGPRX2 | cellular activity |  |  | EC50 | > 100 µM
CCC(=O)O[C@]1(C(=O)SCF)[C@H](C)C[C@H]2[C@@H]3C[C@H](F)C4=CC(=O)C=C[C@]4(C)[C@@]3(F)[C@@H](O)C[C@@]21C | Toxoplasma gondii | parasite growth |  | concentration not given, published screen | activity class | inactive
C[C@H](NC(=O)[C@H](CC(=O)NCC(C)(C)C)NC(=O)c1ccc(C(=O)NO)cc1)C(=O)NCc1ccccc1 | proteasome | chymotrypsin-like activity, inhibitor | SUP-B15r |  | IC50 | 820 nM
CN1CCN(C(=O)C(C)(C)c2ccc(C(=O)Nc3cn4cc(-c5ccncc5)ccc4n3)cc2)CC1 | CLK1 (human) | enzyme activity |  |  | IC50 | 0.67 nM
C[C@H](NC(=O)[C@H](CC(=O)NCC(C)(C)C)NC(=O)C(=O)c1c[nH]c2ccccc12)C(=O)NCc1ccc(F)cc1F | 20S proteasome, human erythrocyte | chymotrypsin-like activity, inhibitor |  |  | IC50 | 2.4 nM
Cc1ncc(-c2cc(Cl)ccc2F)cc1-n1c(=O)n(CC(N)=O)c2ccccc21 | ACVR1B | cell-based |  |  | IC50 | > 10000 nM
COc1cc2ncnc(Nc3ccc(Oc4ccccc4)cc3)c2cc1OC | Src kinase |  |  |  | IC50 | 44 nM
Cc1cc(C)c(-n2ccn3nc(-c4cccnc4)cc23)cc1NC(=O)c1cc(C#N)cc(S(F)(F)(F)(F)F)c1 | LYN | KINOMEscan |  |  | Kd | 40 nM
Nc1nc(F)nc2c1ncn2[C@@H]1O[C@H](CO)[C@@H](O)[C@@H]1O | Toxoplasma gondii | parasite growth |  | concentration not given, published screen | activity class | inactive

For quick reference, copied from above:
Compound | tested on | test | system | conditions | endpoint | result
Nc1nc(F)nc2c1ncn2[C@@H]1O[C@H](CO)[C@@H](O)[C@@H]1O | Toxoplasma gondii | parasite growth |  | concentration not given, published screen | activity class | inactive
